Assay results gathered from unrelated publications.
Each line is one published result; not all experiments were run side by side. Several values in a cell are separate wells, animals, samples, runs or records. ± marks the error that the study gave.
MAPK8: Mitogen-activated protein kinase 8 (MAPK8, Homo sapiens, UniProt P45983)
Protein phosphatase 1G: Protein phosphatase 1G (Homo sapiens, UniProt O15355)

Fc1ccc(Nc2nc(NC3CCCCC3)c3cc(C(F)(F)F)ccc3n2)cc1F  maximal inhibition (ADRB2 (Homo sapiens, UniProt P07550, I159A); β-arrestin2 recruitment, antagonist, BRET; mutant I159A; relative to: isoprenaline maximal response): -0.1%
CN1CCCN(c2cnc3c(cc(C(=O)NCc4ccc(Cl)cc4)c(=O)n3CC(=O)N3CC(C)(F)C3)n2)C1=O  Hill slope (DNA polymerase catalytic subunit (Human cytomegalovirus, UniProt P08546); enzyme activity, inhibitor; retest): 0.7
Cc1cc(NC(=O)[C@H](O)c2cc(F)cc(F)c2)ccc1-c1cnc(N)c(C(=O)NC(C)C)c1  remaining binding (eIF-2-alpha kinase GCN2, C-terminal kinase domain (EIF2AK4, Homo sapiens, UniProt Q9P2K8, S808G); binding, competition with immobilised ligand; 10 µM): 64%
Cc1cn(CC(=O)N(CC(=O)N[C@H]2CCC[C@@H]2N(CC(=O)N[C@H]2COC[C@@H]2N(CC(=O)N[C@H]2COC[C@@H]2N(CC(=O)N[C@H]2COC[C@@H]2N(CC(=O)NCCOCCOCC(N)=O)C(=O)Cn2cnc3c(N)ncnc32)C(=O)Cn2cc(C)c(=O)[nH]c2=O)C(=O)Cn2cnc3c(N)ncnc32)C(=O)Cn2cnc3c(=O)[nH]c(N)nc32)[C@H]2CCC[C@@H]2NC(=O)CN(C(=O)Cn2cnc3c(=O)[nH]c(N)nc32)[C@H]2CCC[C@@H]2NC(=O)CN(C(=O)Cn2cc(C)c(=O)[nH]c2=O)[C@H]2COC[C@@H]2NC(=O)CN(C(=O)Cn2cnc3c(N)ncnc32)[C@H]2COC[C@@H]2NC(=O)CN(C(=O)Cn2cnc3c(=O)[nH]c(N)nc32)[C@H]2COC[C@@H]2N)c(=O)[nH]c1=O  ΔH (complementary RNA; duplex formation, UV melting curve fit; PBS; 1 µM): -70.7 ± 2 kcal/mol
COC(=O)[C@@]1(Cc2ccccc2)C=C(C(=O)OC(C)(C)C)C(=O)CC1  fraction bound (MAPK8; D-peptide binding, inhibitor, FP peptide displacement; 3.906 µM; lower is stronger displacement): 0.703
O=C(O)C1OC(OC2C(C(=O)O)OC(OC3C(C(=O)O)OC(OC4C(C(=O)O)OC(OC5C(C(=O)O)OC(O)C(O)C5O)C(O)C4O)C(O)C3O)C(O)C2O)C(O)C(O)C1O (stereo not drawn)  binding stoichiometry (Beta-lactoglobulin (LGB, Bos taurus, UniProt P02754, A134V/G80D); isothermal titration calorimetry; concentration not given, pH 4.00, 37 °C, 50 mM KH2PO4; ligand per protein): 3.2
C[Si](C)(C)C[C@@H](CN)CC(=O)O  inhibition (DRD2 (Homo sapiens, UniProt P14416); binding, radioligand binding; 75 µM, added: [3H]spiperone): -6%
CCOC(=O)[C@@](CC)(CCCSCCOCCOCCNC(=O)OC(C)(C)C)NC(=O)c1ccc(C2CC2)c(Cc2ccc(F)cc2)n1  Emax (Cnr2 (Mus musculus, UniProt P47936); cAMP, agonist): 44%
CCCCCCCCCCCCC/C=C/C=O  isoTOP-ABPP competition ratio (Protein phosphatase 1G; competitive isoTOP-ABPP, measured: PPM1G cysteine peptide; Ramos soluble proteome; 100 µM, added: iodoacetamide probe; relative to: DMSO over compound-treated, higher = stronger cysteine blockade): 1.1
O=C(N1CCCC1)n1cc(-c2ccc(-c3ccccc3)cc2)nn1  SILAC activity ratio (Isoamyl acetate-hydrolyzing esterase 1 homolog (Iah1, Mus musculus, UniProt Q9DB29); probe labelling, inhibitor, competitive ABPP-SILAC, measured: Iah1; mouse T cells; concentration not given, 4 h, protein level; relative to: treated over DMSO cells, lower = stronger inhibition): 1.27
CCC1(CC)C(=O)N(c2cc(O)cc(C(=O)N3CCN(Cc4ccc(Br)cc4)CC3)c2)C1=O  activity vs control (Dipeptidyl peptidase 8 (Homo sapiens, UniProt Q6V1X1); enzyme activity, inhibitor; 5 µM): < 5%
CCc1ccc(C(=O)N2c3ccc(F)cc3[C@@H](Nc3ccccc3)C[C@H]2C)cc1  pIC50 Z-score (Ecdysone receptor (Aedes albopictus, UniProt Q9U3Y4); ligand binding, inhibitor; intact cells; added: [3H]ponasterone A; direction not given): -0.31
CC1(C)C[C@@H](Nc2cccc(-c3sc(C(=O)O)c(OCC(=O)O)c3Cl)c2)CCN1S(=O)(=O)Cc1cccc(NC(=O)CN2CCC(c3ccc4c(c3)oc(=O)n4C3CCC(=O)NC3=O)CC2)c1 (stereo partly drawn)  BLI binding response (PTPN2 (Homo sapiens, UniProt P17706, H30A/P33A/R35A); degrader, bio-layer interferometry; 500 nM; higher = more binding): 0.528 a.u.
Cc1cc(=O)oc2cc(NC(=O)CCCCCCCC(=O)NO)ccc12  TΔS (HDAC8 (Homo sapiens, UniProt Q9BY41); ITC; triethanolamine buffer; pH 7.5): 4.9 kcal/mol
CCCCCC(O)/C=C/C=O (stereo not drawn)  isoTOP-ABPP competition ratio (Protein phosphatase 1G; competitive isoTOP-ABPP, measured: PPM1G cysteine peptide; Ramos soluble proteome; 100 µM, added: iodoacetamide probe; relative to: DMSO over compound-treated, higher = stronger cysteine blockade): 1.3
N=C(N)NCCC[C@@H]1NC(=O)[C@H](Cc2ccccc2)NC(=O)CSC[C@@H](C(=O)N[C@@H](CC(=O)O)C(N)=O)NC(=O)[C@H](CCCNC(=N)N)NC(=O)[C@H](Cc2c[nH]c3ccccc23)NC(=O)[C@H](Cc2ccc(O)cc2)NC(=O)[C@H](Cc2ccc(O)cc2)NC(=O)[C@H](Cc2ccccc2)NC1=O  ΔTm (STING1 (Homo sapiens, UniProt Q86WV6, H232R); thermal stability, DSF; 100 µM): 8.56 °C
CC(=O)N1c2ccc(-c3ccc(CNC(=O)c4cn5cc(-c6cnc(N)nc6)nc(N6CCOCC6)c5n4)cc3)cc2CC[C@@H]1C  remaining binding (Bromodomain-containing protein 2, BD1 (BRD2, Homo sapiens, UniProt P25440); binding, competition with immobilised ligand; 10 µM): 0.5%
COC(=O)[C@@]1(C)C=C(C(=O)OC(C)(C)C)C(=O)CC1  fraction bound (MAPK8; D-peptide binding, inhibitor, FP peptide displacement; 15.62 µM; lower is stronger displacement): 0.861
NCc1cc2c(cc1F)C(=O)N(C1CCC(=O)NC1=O)C2 (stereo not drawn)  Dmax (GSPT1/CRBN (Homo sapiens, UniProt P15170+Q96SW2); degrader, Western blot; Hep3B; 6 h): 94%
CC(C)Oc1cc(Cl)ccc1CNc1cc(-c2ccccc2)nc2ncnn12  cAMP luminescence (GPR3 (Homo sapiens, UniProt P46089); cAMP reporter; human cells; 1 µM; higher is more cAMP): 24500 a.u. and 19200 a.u. and 2860 a.u. and 2520 a.u. and 11500 a.u. and 28700 a.u. and 7950 a.u. and 5800 a.u.
C#CCOC(=O)[C@]1(C)C=C(C(=O)OC(C)(C)C)C(=O)CC1  normalized kinase activity (MAPK8; enzyme activity, D-SENSOR; 0.06097 µM, mean of replicates): 1.05
C[C@@H](Nc1nc2c(cnn2C(C)(C)C)c(=O)n1Cc1cccc(F)c1)c1ccc(Cl)cc1  selectivity ratio (PDE1C (Homo sapiens, UniProt Q14123); inhibitor; relative to: other PDEs over PDE1): > 100
CC(C)(C)OC(=O)C1=C[C@@](C)(C(=O)OCC#Cc2ccncc2)CCC1=O  fraction bound (MAPK8; D-peptide binding, inhibitor, FP peptide displacement; 25 µM; lower is stronger displacement): 0.42
CNC(=O)C[C@H](Cc1ccc(C#N)cc1)NC(=O)c1cc(-c2ccc(CN[C@H](C)c3ccc(C)cc3)o2)ccc1Cl  activity vs control (VRK1 (Homo sapiens, UniProt Q99986); enzyme activity, inhibitor; 1 µM): 97%
